Measurements collected from several papers.
Compare with care: the assays were run in different laboratories.

`Cc1ccc(/N=N/c2c(O)ccc3ccccc23)c(C)c1` has a stability deviation of -1.6% (rat whole blood extract; 0.5 µg/L, 30 days, -20 °C, long-term storage).
`O=c1c(O)c(-c2ccc(O)c(O)c2)oc2cc(O[C@@H]3O[C@H](CO)[C@@H](O)[C@H](O)[C@H]3O)cc(O)c12` has a stability time of at least 24 h (processed plasma samples; 15 °C, autosampler).
`CSCC[C@H](NC(C)=O)C(=O)[O-].CSCC[C@H](NC(C)=O)C(=O)[O-].[Ru+2].c1cc(Nc2nccc3ccccc23)nc(-c2cccc(Nc3nccc4ccccc34)n2)c1` has a stability time of 16 h (1H NMR; DMSO-d6; dark).
The stability ratio of `C=C1C[C@@]23CC[C@H]4[C@@](C)(CCC[C@@]4(C)C(=O)O[C@@H]4O[C@H](CO)[C@@H](O)[C@H](O)[C@H]4O)[C@@H]2CC[C@]1(O[C@@H]1O[C@H](CO[C@H]2O[C@H](CO)[C@@H](O)[C@H](O)[C@H]2O)[C@@H](O)[C@H](O)[C@H]1O[C@@H]1O[C@H](CO)[C@@H](O)[C@H](O)[C@H]1O)C3` is reported as about 2.5 fold (Britton-Robinson buffer; 0.05 w/v, pH 1.4; reference: cpd over rebaudioside A).
For `COC(=O)/C=C/C(=O)c1ccc(OC)cc1`, stability read “stable” (rat plasma; three freeze-thaw cycles).
The stability duration of `C#CCOCCOCCOCCOCCn1cc(C(ONC(=O)/C=C/C(C)=C/C2(C)Oc3cc(N(C)C)ccc3C2=O)(c2ccc(C)cc2)c2ccc(C)cc2)nn1` (centres unmarked) is reported as over 3 days (buffer; pH at least 7).
`Oc1ccc2ccccc2c1/N=N/c1ccccc1` has a stability deviation of 2.3% (rat whole blood; 5.0 µg/L, 30 days, -20 °C, long-term storage).
With `CC/C=C\C/C=C\C/C=C\C/C=C\C/C=C\C/C=C\CCC(=O)Nc1ccn(C2OC(CO)C(O)C2(F)F)c(=O)n1` (centres unmarked) the stability time was at least 48 h (isopropyl myristate).
The stability time of `CO[C@@H](C[C@H]1C(C)=CC[C@@H]2[C@]3(C)C[C@H](O[C@@H]4O[C@@H](C)[C@H](O)[C@@H](O)[C@H]4O)[C@@H](O)C(C)(C)[C@H]3CC[C@]21C)[C@H](N)C(=O)O` is reported as over 4 h (simulated intestinal fluid with pancreatin; 1 µM, pH 6.8, 37 °C).
With `Cc1ccccc1/N=N/c1ccc(/N=N/c2c(O)ccc3ccccc23)c(C)c1` the stability deviation was 1% (rat whole blood; 16.0 µg/L, 30 days, -20 °C, long-term storage).
For `CC[C@H](C)[C@H](NC(=O)[C@H](N)Cc1ccc(O)cc1)C(=O)N[C@H]1CSSC[C@@H](C(=O)N(C)[C@H](C(N)=O)[C@@H](C)CC)NC(=O)[C@H](CCCNC(=N)N)NC(=O)[C@H](Cc2c[nH]cn2)NC(=O)[C@H](C)NC(=O)CN(C)C(=O)[C@H](Cc2c[nH]c3ccccc23)NC(=O)[C@H](CC(=O)O)NC(=O)[C@H](CCC(N)=O)NC(=O)[C@H](Cc2cn(C)c3ccccc23)NC(=O)[C@H](C(C)C)NC1=O`, the stability time was at least 48 h (cynomolgus monkey plasma, SPE extract; room temperature and 4 °C).
